# Results from different studies.
# Compare with care: the assays were run in different laboratories. Several values in a cell are separate wells, animals, samples, runs or records. Numbers after ± are the reported error.
# CDK7: Cyclin-dependent kinase 7 (CDK7, Homo sapiens, UniProt P50613)
# Chain of UniProt P50613 (whole entry, looked up): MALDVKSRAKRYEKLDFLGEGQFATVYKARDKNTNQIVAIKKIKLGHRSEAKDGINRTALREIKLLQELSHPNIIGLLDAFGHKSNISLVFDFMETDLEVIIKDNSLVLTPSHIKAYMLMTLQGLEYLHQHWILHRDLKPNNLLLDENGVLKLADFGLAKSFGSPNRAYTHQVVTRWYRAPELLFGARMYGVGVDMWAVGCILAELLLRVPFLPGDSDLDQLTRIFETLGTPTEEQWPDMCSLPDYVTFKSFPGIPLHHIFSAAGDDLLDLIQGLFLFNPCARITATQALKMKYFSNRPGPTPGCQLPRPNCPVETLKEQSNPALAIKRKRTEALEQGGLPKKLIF
# CDK7 with cyclin H, MAT1: Cyclin-dependent kinase 7, with cyclin H, MAT1 (CDK7, Homo sapiens, UniProt P50613)
SMILES,target,assay,system,setting,scale,measurement,result
O=C(NC1CCC1)c1ccc2nc(-c3cccc(NS(=O)(=O)NCCN4CCCCC4)c3)cn2c1,CDK7,enzyme activity,,10 µM,,remaining activity,75%
CS(=O)(=O)Nc1cccc(-c2csc(NC(=O)CSc3nc4nccnc4c(=O)n3CCc3ccccc3)n2)c1,"CDK7 with cyclin H, MAT1","kinase activity, inhibitor",,10 µM,,inhibition,-6%
CN(C)C1CCN(CC#Cc2nn(C3CCCC3)c3nc(NCc4ccccc4)ncc23)C1 (stereo not drawn),"CDK7 with cyclin H, MAT1","enzyme activity, inhibitor, Z'-LYTE",,1000 nM,,inhibition,1%
CNc1cc(Oc2cc(C(=O)Nc3cc(N4CCN(C)CC4)cc(C(F)(F)F)c3)ccc2C)ncn1,CDK7,kinase activity,,1 µM,,inhibition,-12.7%
O=C(CSc1nc2nccnc2c(=O)n1CCc1ccccc1)Nc1nccs1,"CDK7 with cyclin H, MAT1","kinase activity, inhibitor",,10 µM,,inhibition,-48%
CC[C@@H]1[C@H](F)C(=O)N[C@@H]1COc1nccc2cc(C(N)=O)c(OC)cc12,CDK7,"ATP-site probe binding, ActivX profiling",THP-1 cell lysate,"0.2 mM, Lys2 site",,inhibition,-4.5%
CN1CC(Oc2cnc(C#N)cc2-c2ccn3nc(NC(=O)C4CC4)cc3c2)C1,"CDK7 with cyclin H, MAT1","inhibitor, KinaseProfiler panel",,1 µM,,inhibition,-29%
COc1cc(-c2cncc3c2CN(C)Cc2cc(N4CCNCC4)ccc2-3)cc(OC)c1OC,CDK7,kinase activity,,"1 µM, human enzyme, together with: ATP 10 µM",baseline: DMSO control,remaining activity,115%
Cc1c(O)cc2oc3c(c(=O)c2c1O)-c1ccccc1OC3O (stereo not drawn),CDK7,inhibitor,,10 µM,,inhibition,60.4 ± 0.2%
Cc1cc(Nc2cc(N3CCN(C)CC3)nc(Sc3ccc(NC(=O)C4CC4)cc3)n2)[nH]n1,CDK7,"kinase activity, KinaseProfiler",,"0.03 µM, species human",baseline: control,remaining activity,98%
CN(C)C/C=C/C(=O)Nc1ccc(C(=O)Nc2cccc(Nc3ncc(Cl)c(-c4c[nH]c5ccccc45)n3)c2)cc1,"CDK7 with cyclin H, MAT1","kinase activity, Kinase-Glo luminescence",,concentration not given,,normalized luminescence,0.801 and 1.33 and 1.12
CNc1ncc2c(/C=C/C(=O)N3CCC(OC)CC3)nn(Cc3cccc(C(F)(F)F)c3)c2n1,"CDK7 with cyclin H, MAT1","kinase activity, inhibitor",,1 µM,baseline: untreated control,remaining activity,90%

# For quick reference, copied from above:
SMILES,target,assay,system,setting,scale,measurement,result
O=C(NC1CCC1)c1ccc2nc(-c3cccc(NS(=O)(=O)NCCN4CCCCC4)c3)cn2c1,CDK7,enzyme activity,,10 µM,,remaining activity,75%
